Measurements pooled from the literature.
Each line is one published result; not all experiments were run side by side. Numbers after ± are the reported error.

SMILES | test | test system | conditions | scale | quantity | result
NCC(=O)Nc1cncc(-c2nn3c(=O)cc(N4CCNCC4)nc3s2)c1 | ADP-induced platelet aggregation, light transmission aggregometry | human, stable CAD on aspirin, ex vivo platelets | subcutaneous, 0.04 mg/kg, 90 min post-dose, mean value, added: ADP 20 µM | – | inhibition | 6.8%
O=C(COc1ccc(Cl)cc1)NC12CC(c3nnc([C@H]4C[C@@H](OC(F)(F)F)C4)o3)(C1)C2 | – | healthy human, PBMC | 100 mg once daily, day 15, 24 h post-dose, median, added: sodium arsenite ex vivo | baseline: baseline | ATF4 protein change | -73.4%
N#CCC1CCN(c2nc(Nc3ccc(N4CCC(O)CC4)cc3)c3c(=O)[nH]ncc3n2)CC1 | Olink multiplex, item: CDCP1 | human, serum | 80 mg, day 15 | baseline: baseline | fold change from baseline | -1.29
COc1nnc2ccc(N3CCC(c4ccc(OCCN5CCN(C)C(=O)[C@H]5C)cc4)CC3)nn12 | – | human patients | 5 mg once daily, above baseline variability | – | time above HEXIM1 threshold | 1.54 h
COc1ccc(-c2cncc(N[C@@H](C)c3cccc(NC(=O)c4cncc(C)c4)c3)n2)cc1OC | item: rno-miR-194-5p | rat SU5416/hypoxia model, lung | dose not given | baseline: SU5416/hypoxia vehicle | fold change | 0.946
CN(CCOc1ccc(CC2SC(=O)NC2=O)cc1)c1ccccn1 (racemic) | indirect calorimetry | mice, diet-induced obese | dose not given, end of treatment | – | VO2 | 85.4 ± 7.19 mL/min/kg
O=C(/C=C/c1cc(F)cc(F)c1)c1ccc[nH]1 | ZEBRA device | zc4h2 knockout zebrafish larvae, 5 dpf | up to 10 µM, 2 h | baseline: control | jaw movement frequency | decreased
CN[C@@H]1COc2c(S(=O)(=O)NC(=O)Nc3c4c(cc5c3CCC5)CCC4)cnn2C1 | item: IL-18 | human participants, whole blood ex vivo | 150 mg single dose, 48 h, IL-18, circulating, adjusted for, added: LPS/ATP | baseline: baseline | inhibition | 53.9%
CCCCCN1C[C@H](O)[C@@H](O)[C@H](O)[C@@H]1CO | – | Hexb-/- mouse, liver | 300 mg/kg/day, unit not given | baseline: 30 mg/kg/day | increased sphingolipid species | 0
CCO[C@H]1CCN(Cc2c(OC)cc(C)c3[nH]ccc23)[C@H](c2ccc(C(=O)O)cc2)C1 | – | PNH patients, blood | oral, 50 mg then 200 mg, week 12, mean percent change | baseline: baseline | C3d-positive type III RBCs | -84.6%
O=C1Nc2cc3[nH]nc(-c4ccncc4)c3cc2CN1Cc1ccccc1 | RECIST v1.1 | human, relapsed or refractory advanced solid tumours | intravenous, 3.6 mg/kg, pooled schedules | – | complete response, best response | 0%
CC(=O)NCC(=O)NCC(=O)N[C@H](C(=O)N[C@@H](Cc1ccc(O)cc1)C(=O)N[C@@H](CO)C(=O)N[C@H]1CSSC[C@@H](C(=O)N[C@@H](CCCNC(=N)N)C(=O)N2CCC[C@H]2C(=O)N[C@@H](CCC(N)=O)C(=O)N[C@@H](CCCNC(=N)N)C(=O)NCC(=O)NCCC(=O)N[C@@H](CCCCNC(=O)CN(CC(=O)NCCCC[C@H](NC(=O)CCNC(=O)CNC(=O)[C@H](CCCNC(=N)N)NC(=O)[C@H](CCC(N)=O)NC(=O)[C@@H]2CCCN2C(=O)[C@H](CCCNC(=N)N)NC(=O)[C@@H]2CSSC[C@H](NC(=O)[C@H](CO)NC(=O)[C@H](Cc3ccc(O)cc3)NC(=O)[C@@H](NC(=O)CNC(=O)CNC(C)=O)[C@@H](C)O)C(=O)N[C@@H](Cc3c[nH]cn3)C(=O)N[C@@H](Cc3ccccc3)C(=O)NCC(=O)N[C@@H](C)C(=O)N[C@@H](CC(C)C)C(=O)N[C@@H]([C@@H](C)O)C(=O)N[C@@H](Cc3c[nH]c4ccccc34)C(=O)N[C@@H](C(C)C)C(=O)N2)C(N)=O)C(=O)CCN)C(N)=O)NC(=O)[C@H](C(C)C)NC(=O)[C@H](Cc2c[nH]c3ccccc23)NC(=O)[C@H]([C@@H](C)O)NC(=O)[C@H](CC(C)C)NC(=O)[C@H](C)NC(=O)CNC(=O)[C@H](Cc2ccccc2)NC(=O)[C@H](Cc2c[nH]cn2)NC1=O)[C@@H](C)O | – | healthy BALB/c mice | subcutaneous, 0.08 mg/kg, 8 d, single dose | – | haematocrit | 42.7%
CC[C@H](CO)Nc1nc(NCc2ccc(-c3ccccn3)cc2)c2ncn(C(C)C)c2n1 | – | NOD scid gamma mouse, IMR-32 xenograft, tumour | ip, dose not given, daily dosing | – | Mcl-1 protein level | decreased
Cn1cc(Nc2nccc(-c3ccc4c(c3)CN(C3COC3)CC[C@H]4NC(=O)c3cn(C(C)(C)C)nn3)n2)cn1 | item: Isoleucine Degradation I | splenic B cells, Mus musculus | 30 mg/kg, added: IgD activation | baseline: vehicle, direction not given | pathway activation z-score | 0
C[C@@H](O)CCOC(=O)C[C@@H](C)O | – | human | oral drink, dose not given, 180 min post dose, median, all participants | – | plasma NEFA | 0.1 mM
CC(C)[C@H](C(=O)Nc1ccc(C(=O)NO)cc1)c1ccccc1 | volumetric MRI | human, right IAC schwannoma | dose not given, on treatment, day 224 | – | annual tumour growth rate | 18.1 %/year
C[C@H](Oc1ccc(Br)cc1-c1ccon1)C(=O)O | mean CMAP amplitude | human, tibialis anterior muscle | 200 mg, SAD | – | difference from placebo | 0.043 mV
N#Cc1ccc2c(c1)[C@H]1CCCN(C(=O)c3ccc4[nH]cnc4c3)[C@H]1C2 | item: body weight | human | 80 mg once daily, day 28, adjusted mean | baseline: placebo | change from baseline | -0.55 kg
NC(=O)c1cnc2[nH]ccc2c1N[C@@H]1[C@@H]2CC3C[C@H]1C[C@@](O)(C3)C2 | CD4+ naive T cells, flow cytometry | Japanese humans, peripheral blood | 200 mg single dose | baseline: baseline | percent change | 2.37%
Cc1cc(Nc2ccc(S(F)(F)(F)(F)F)cc2)n2nc(C(C)(F)F)nc2n1 | item: dihydroorotate | female CD-1 mice, pooled urine | oral, 300 mg/kg daily, 0-8 h after dose 3 | – | DHO concentration | 3.63 ± 0.21 µM
N#Cc1ccn2c(-c3ccncc3)c(-c3ccc(F)cc3)nc2c1 | kinase binding, competitor, MIB/MS competition, item: TOR1 | Candida albicans cell lysate | 1 µM | baseline: DMSO | log2 fold change | 0.0413

SMILES | test | test system | conditions | scale | quantity | result
COc1ccccc1[C@H](Cn1c(=O)n(C(C)(C)C(=O)O)c(=O)c2c(C)c(-c3ncco3)sc21)OC1CCOCC1 | – | human | 50 mg, post-treatment | – | blood Glucose level | 90.5 ± 10.9 mg/dL
C[C@@H]1CCC[C@H](n2cnc(-c3cc(Cl)ccc3-n3cc(Cl)nn3)cc2=O)c2cc(ccn2)-c2c(cnn2C(F)F)NC1=O | – | cynomolgus monkey plasma | IC2.5× aPTT, Actin FS reagent | – | concentration for aPTT prolongation | 2400 nM
CCCCC1(CCCC)CN(c2ccccc2)c2cc(SC)c(OCC(=O)N[C@@H](C(=O)NCC(=O)O)c3ccccc3)cc2S(=O)(=O)C1 | item: 7α-hydroxy-4-cholesten-3-one | human, plasma | 2.5 mg once daily, day 14 | – | plasma C4 | 34.5 ng/mL
N#Cc1ccc2c(c1)[C@H]1CCCN(C(=O)c3ccc4[nH]cnc4c3)[C@H]1C2 | – | human, plasma | 360 mg, day 15 | baseline: baseline, placebo-corrected | change in fasting insulin | -20.7%
COc1cccc2c1C(=O)c1c(O)c3c(c(O)c1C2=O)C[C@@](O)(C(=O)CO)C[C@@H]3O[C@H]1C[C@H](N)[C@H](O)[C@H](C)O1 | item: metastatic burden and inflammation | metastases, lung, MDA-MB-231-Luc-GFP, NSG mice xenograft, lung | 3 mg/kg, 1 week after three weekly doses | direction not given | histopathological score | 3
C[C@@H](NC(=O)N1C(=O)[C@H](Cc2ccnc(N)c2)[C@H]1C(=O)O)C1CCCCC1 | – | human | iv infusion, 1.5 mg/kg/h, 24 h | baseline: baseline | time to aPTT Emax | 72 h
CC(c1cc2ccccc2s1)N(O)C(N)=O (stereo not drawn) | item: arachidonic acid | human whole blood | 3 µM, added: Escherichia coli | – | amount | 530000 ± 85600 pg/mL blood
O=C(O)CNC(=O)Cc1ccccc1 | – | ventricular cardiomyocytes, C57BL/6 mouse | dose not given, 0.192 s | – | sarcomere length | 1.62 µm
CC(C)[C@H](NC(=O)[C@H](Cc1ccc(O)cc1)NC(=O)[C@H](Cc1ccc(O)cc1)NC(=O)[C@@H]1CCCN1C(=O)[C@H](CCC(=O)O)NC(=O)[C@H](CCC(=O)O)NC(=O)[C@H](Cc1c[nH]c2ccccc12)NC(=O)[C@@H]1CCCN1C(=O)[C@@H](NC(=O)[C@H](CCC(N)=O)NC(=O)c1ccc2c(c1)C(=O)OC21c2ccc(O)cc2Oc2cc(O)ccc21)C(C)C)C(=O)N[C@H](C(=O)N[C@@H](CCCCN)C(=O)N[C@@H](CCCCN)C(=O)N[C@@H](CO)C(=O)N[C@@H](CO)C(=O)NCC(=O)NCC(N)=O)C(C)C | nerve penetration depth | human head and neck surgery, nerves | 500 mg, improved | baseline: white light | share of responses | 30.8%
N#Cc1ccc2c(-c3ccncc3)c(-c3ccc(F)cc3)nn2c1 | kinase binding, competitor, MIB/MS competition, item: SSK2 | Candida albicans cell lysate | 100 nM | baseline: DMSO | log2 fold change | 0.0292
C[C@H]1C[C@H]2CSC(N)=N[C@@]2(c2nc(NC(=O)c3ccc(OC(F)F)cn3)cs2)CO1 | item: total Aβ | healthy adults, plasma | 50 mg once daily, day 14 | baseline: placebo | percent change from baseline | -61.8%
COc1cc(Nc2ncc3c(n2)-c2ccc(Cl)cc2C(c2c(F)cccc2OC)=NC3)ccc1C(=O)O | – | mouse, NB-1643 neuroblastoma xenograft | 10.4 mg/kg | direction not given | median response score | 10
c1ccc(-c2n[nH]cc2-c2ccnc3ccccc23)nc1 | kinase binding, competitor, MIB/MS competition, item: YCK2 | Candida albicans cell lysate | 100 nM | baseline: DMSO | log2 fold change | 0.831
C[C@]1(c2nc3c(C(N)=O)cccc3[nH]2)CCCN1 | item: poly(ADP-ribose) | cancer patients, tumour biopsy | 10 mg, 7 h, added: combination | – | PAR reduction | > 75%
OC(CCN1CCCCC1)(c1ccccc1)C1CC2C=CC1C2 (stereo not drawn) | resting-state EEG | healthy elderly humans | oral, 4 mg, eyes closed, LS mean | – | beta power, EEG, Fz Cz | 6 µV²
Oc1nc2nonc2cc1Nc1c(F)c(F)c(F)c(F)c1F | indirect calorimetry | Western diet-fed mice | oral gavage, 130 mg/kg, 4 h | baseline: vehicle | carbon dioxide production | increased
CN1CC(Oc2cnc(C#N)cc2-c2ccn3nc(NC(=O)C4CC4)cc3c2)C1 | IL-10 release, inducer | C57BL/6 mouse, LPS challenge, plasma | oral, 1 and 80 mg/kg, dosed 1 h before LPS | – | EC50 | 1140 nM
CN(C)C(=O)c1cc2cnc(Nc3ccc(N4CCNCC4)cn3)nc2n1C1CCCC1 | RNA-seq GSEA, item: HALLMARK_CHOLESTEROL_HOMEOSTASIS | MB002 tumour | concentration not given, in vivo | baseline: vehicle, direction not given | normalized enrichment score | 2
Cc1n[nH]c2ccc(-c3cc(OC[C@@H](N)Cc4ccccc4)cnc3-c3ccoc3)cc12 | kinase binding, competitor, MIB/MS competition, item: YCK2 | Candida albicans cell lysate | 10 µM | baseline: DMSO | log2 fold change | -3.65
CC(C)NCC(O)c1ccc(O)c(O)c1 (stereo not drawn) | – | ventricular cardiomyocytes, C57BL/6 mouse | dose not given, 0.66 s | – | sarcomere length | 1.72 µm
O=C(Nc1cccnn1)N1CCC(=Cc2cccc(Oc3ccc(C(F)(F)F)cn3)c2)CC1 | mechanical and thermal hyperalgesia | mouse CFA arthritis | oral, 2 h | baseline: vehicle | effective dose | 3 to 30 mg/kg

Some of these lines once more:
SMILES | test | test system | conditions | scale | quantity | result
CC(=O)NCC(=O)NCC(=O)N[C@H](C(=O)N[C@@H](Cc1ccc(O)cc1)C(=O)N[C@@H](CO)C(=O)N[C@H]1CSSC[C@@H](C(=O)N[C@@H](CCCNC(=N)N)C(=O)N2CCC[C@H]2C(=O)N[C@@H](CCC(N)=O)C(=O)N[C@@H](CCCNC(=N)N)C(=O)NCC(=O)NCCC(=O)N[C@@H](CCCCNC(=O)CN(CC(=O)NCCCC[C@H](NC(=O)CCNC(=O)CNC(=O)[C@H](CCCNC(=N)N)NC(=O)[C@H](CCC(N)=O)NC(=O)[C@@H]2CCCN2C(=O)[C@H](CCCNC(=N)N)NC(=O)[C@@H]2CSSC[C@H](NC(=O)[C@H](CO)NC(=O)[C@H](Cc3ccc(O)cc3)NC(=O)[C@@H](NC(=O)CNC(=O)CNC(C)=O)[C@@H](C)O)C(=O)N[C@@H](Cc3c[nH]cn3)C(=O)N[C@@H](Cc3ccccc3)C(=O)NCC(=O)N[C@@H](C)C(=O)N[C@@H](CC(C)C)C(=O)N[C@@H]([C@@H](C)O)C(=O)N[C@@H](Cc3c[nH]c4ccccc34)C(=O)N[C@@H](C(C)C)C(=O)N2)C(N)=O)C(=O)CCN)C(N)=O)NC(=O)[C@H](C(C)C)NC(=O)[C@H](Cc2c[nH]c3ccccc23)NC(=O)[C@H]([C@@H](C)O)NC(=O)[C@H](CC(C)C)NC(=O)[C@H](C)NC(=O)CNC(=O)[C@H](Cc2ccccc2)NC(=O)[C@H](Cc2c[nH]cn2)NC1=O)[C@@H](C)O | – | healthy BALB/c mice | subcutaneous, 0.08 mg/kg, 8 d, single dose | – | haematocrit | 42.7%
c1ccc(-c2n[nH]cc2-c2ccnc3ccccc23)nc1 | kinase binding, competitor, MIB/MS competition, item: YCK2 | Candida albicans cell lysate | 100 nM | baseline: DMSO | log2 fold change | 0.831
COc1cccc2c1C(=O)c1c(O)c3c(c(O)c1C2=O)C[C@@](O)(C(=O)CO)C[C@@H]3O[C@H]1C[C@H](N)[C@H](O)[C@H](C)O1 | item: metastatic burden and inflammation | metastases, lung, MDA-MB-231-Luc-GFP, NSG mice xenograft, lung | 3 mg/kg, 1 week after three weekly doses | direction not given | histopathological score | 3
